Results collected from several papers.
A part holds a random share of what one study measured. Positions count from the first letter of the parent shown.

Series 1 — method: RNA Bind-n-Seq; molecule type: RNA; matrix: in vitro; tested at: 200 nM; setting: whole 134-nt RNA, ends assumed; with: 150 mM KCl; reference: input library; direction: higher = stronger binding
Target: Fragile X messenger ribonucleoprotein 1, C-terminal low-complexity region (Fmr1, Mus musculus, UniProt P35922)
All sequences stand within: GGGAGUUCUACAGUCCGACGAUC … UGGAAUUCUCGGGUGUCAAGG
`CUCAAGUCCUGUGCUACACAUCGUAUGUACCGAAUCGGGGAAGGGGAAGGAAGGAAAGUAUUAUGUUACGCCGUUCGGAUCUGCACUUCC` has a log2 enrichment of -0.133.
`GCAUAAUGGAUAUUUUUUAACUUGGCGAGAUGUGUCUCUCAAUCCUGUGGCUUUGGUGAGAGAGUGUGCAGAGAGCAAUGAUAGCAAAUA` gave a log2 enrichment of 0.298.
`GCAGGAAGUAAAAACAUAUGGAAAUGCUUCGGAUAGUGGCAGGGGUGGGGGUUGCUAAGGAAAGGGUGGGAUGGGAGUGGGUAAAGAGUU` has a log2 enrichment of 0.195.
For `UCCUGUGCUACACAUCGUAUGUACCGAAUCAAACCCCCCCAAAUUUUUUUAAAUUUAAAAAAGUAUUAUGUUACGCCGUUCGGAUCUGCA`, the log2 enrichment was 0.49.
`CAAGUCCUGUGCUACACAUCGUAUGUACCGAAUCGGUUUGGUUUGGAAAAAAAGGAAAGUAUUAUGUUACGCCGUUCGGAUCUGCACUUC` gave a log2 enrichment of -0.656.
The log2 enrichment of `CUCAAGUCCUGUGCUACACAUCGUAUGUACCGAAUCGGGGAAGGGAAGGAAGGAAAGUAUUAUGUUACGCCGUUCGGAUCUGCACUUCCA` is reported as 0.059.
`UGGCCCUGGUGGCAUGCGGGGAGGAAGAGGUGGCCUCAUGGAUCGUGGUGGUCCCGGUGGAAUGUUCAGAGGUGGCCGUGGUGGAAACAG` gave a log2 enrichment of 0.086.
For `AAGUCCUGUGCUACACAUCGUAUGUACCGAAUCGGGGCCCGGGCCCGGGCCCGGGGAAAGUAUUAUGUUACGCCGUUCGGAUCUGCACUU`, the log2 enrichment was -0.0593.
`AAGUCCUGUGCUACACAUCGUAUGUACCGAAUCGGAAAAAAAGGAAAAAAAGGAGGAAAGUAUUAUGUUACGCCGUUCGGAUCUGCACUU` has a log2 enrichment of -0.83.
With `CUGUGCUACACAUCGUAUGUACCGAAUCGGCCCCCCCGGGGCCCCCCCGGGCCCCCCCGGGGAAAGUAUUAUGUUACGCCGUUCGGAUCU` the log2 enrichment was -1.49.
`GUCCUGUGCUACACAUCGUAUGUACCGAAUCAAACCCCCAAAUUUAAAUUUUUUUAAAAAAGUAUUAUGUUACGCCGUUCGGAUCUGCAC` has a log2 enrichment of 0.272.
With `GCAGGAAGUAAAAACAAAUGGAAAUGCUUCGGAUAUUGGCAGGGGUGGGGGUUGCUAAGGAAAGGGUGGGAUGGGAGUGGGUAAAGAGUU` the log2 enrichment was 1.03.
`UCAAGUCCUGUGCUACACAUCGUAUGUACCGAAUCGGGGAAGGGGAAGGGAAGGAAAGUAUUAUGUUACGCCGUUCGGAUCUGCACUUCC` gave a log2 enrichment of 0.0404.
`CUCAAGUCCUGUGCUACACAUCGUAUGUACCGAAUCGGGCGGGGCGGGGCGGGGAAAGUAUUAUGUUACGCCGUUCGGAUCUGCACUUCC` has a log2 enrichment of 1.29.

Series 2 — method: DHFR PCA, deep sequencing; matrix: yeast; with: (+)-ABA 2500 µM; reference: wild-type fitted maximum; direction: higher = stronger binding
Target: ABI1, truncated, D143A, DHFR fusion (Arabidopsis thaliana)
Setting: methotrexate growth selection, single substitutions
Parent: PYL1, truncated, DHFR fusion (Arabidopsis thaliana); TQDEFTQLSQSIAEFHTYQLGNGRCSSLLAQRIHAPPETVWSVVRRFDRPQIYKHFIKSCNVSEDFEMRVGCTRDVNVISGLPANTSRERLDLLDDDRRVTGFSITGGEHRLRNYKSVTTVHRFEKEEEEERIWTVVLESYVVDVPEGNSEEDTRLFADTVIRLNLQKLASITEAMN; partner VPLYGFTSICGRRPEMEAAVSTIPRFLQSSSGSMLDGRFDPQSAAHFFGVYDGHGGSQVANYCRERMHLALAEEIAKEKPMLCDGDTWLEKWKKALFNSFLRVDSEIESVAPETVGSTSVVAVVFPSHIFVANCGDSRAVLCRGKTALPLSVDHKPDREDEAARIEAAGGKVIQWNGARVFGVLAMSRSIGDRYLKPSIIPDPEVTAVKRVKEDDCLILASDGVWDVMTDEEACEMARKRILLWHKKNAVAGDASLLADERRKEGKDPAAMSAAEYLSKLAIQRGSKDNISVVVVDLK
For `N149P`, “relative binding score” read 38.7%.
Under “relative binding score”, `R123V` is recorded as 103%.
`P50Y` — result for “relative binding score”: -12.6%.
Under “relative binding score”, `L20G` is recorded as 102%.
Under “relative binding score”, `T160P` is recorded as 3.2%.
`R90K`: “relative binding score” 98.4%.
For `H34S`, “relative binding score” read 99.6%.
For `Y141I`, “relative binding score” read 2.55%.
`V161E` — result for “relative binding score”: -8.37%.
Under “relative binding score”, `T120I` is recorded as 19.8%.
`L166H`: “relative binding score” 86.5%.
Under “relative binding score”, `L8H` is recorded as 91.4%.
Under “relative binding score”, `V43R` is recorded as 82.3%.
Under “relative binding score”, `G107E` is recorded as 98.4%.
For `F15Q`, “relative binding score” read 84.1%.
For `H34M`, “relative binding score” read 101%.

Series 3 — method: RNA Bind-n-Seq; molecule type: RNA; matrix: in vitro; tested at: 365 nM; reference: no-protein control; direction: higher = stronger binding
Target: RNA binding protein fox-1 homolog 2, RRM domain, GST-SBP tag (RBFOX2, Homo sapiens, UniProt O43251-10, residues 100-194)
Setting: natural RNA segment, single round, ends assumed
All sequences stand within: GGGAGUUCUACAGUCCGACGAUC … UGGAAUUCUCGGGUGCCAA
Residues (chain): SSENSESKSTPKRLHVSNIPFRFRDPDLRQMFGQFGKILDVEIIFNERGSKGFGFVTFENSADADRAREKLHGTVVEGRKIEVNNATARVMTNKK
Under “RBNS enrichment (R)”, `CAAAAGAAGUAGCUUUUUCCAGUGUCUUUUGUGUUACUGAUUUGGGAAAUGUUGAAAGAUUGGACAGGGAAGAAUAGCGCUUGGUGUCCUCAUGGUCAUUCUGUCUUACC` is recorded as 0.843.
For `AUAACCAUUUCCUUCUUGUCACUGAAAUAUAUGGACCUGAAUUUGUAUCCUGACUGAUUCAACCCAGCCGAGCAUAAAUUGACUUGAGCGCCUUACCUUUGAUGUCUGAA`, “RBNS enrichment (R)” read 0.593.
For `AGUGACUACACUGGUGUCUGACUUUUUUCCUAGAGAUUUCUCCCUGAAAAAUACAAGGGCUGUUGGUGAGAGCAGACUUGAGGUGAUGAUAGUUGGCCUCUGGUCUACAA`, “RBNS enrichment (R)” read 1.01.
`CAUCAAAGAGAGAAAAGAAUGUGGGGCGAUUCCGCUGCUCCACACCCCCAGCGGCCCAUCCCACACCUCAGCUUCAUGUCUGUCCCAUCCCUAUACCAUCCCACCCUGUU`: “RBNS enrichment (R)” 0.602.
Under “RBNS enrichment (R)”, `CAAAGUAAGGGUUUUUUUUUUUAGCUUCCACUCUUCCGCAGACUUGGUCAUCGACCUAUUUUUGUUGAAGAAUGAAAGGCAAUGACAAGUUUAACAUAUACAAAUUCGUG` is recorded as 0.635.
For `UAUAAAUGUUUGUCUGGAUUGGCUAUAACAUGUCUUUCAGCAUUAGGCUUUUAAGAAACACAGGGUUUUGUAUUCUUUACUAAAGAUAUCAGAGCUCUUAAUGUUGCUUA`, “RBNS enrichment (R)” read 0.255.
Under “RBNS enrichment (R)”, `UGCAAGAAGAAUCUGGGCUGAGCUGCUUCAAACAAGGAGGCUUUGCUCUGGAGUGAGGAGGGAGUGACCCCUCAGCCUGUGUAGGGUCCAGUUUUAUGCUCUCGGAAGGC` is recorded as 0.489.
For `GUCUACGAUUUGGUGAAAACAUCUAGAUGUCAUCACAAACUUUGCCAAAUUUGUGGAACUAUUAAAUGUAUAAUUUGUAGACAUAAAGACUUGAUUGCUUUCCAGUUUAA`, “RBNS enrichment (R)” read 0.392.
`UGCAGGCCUGCUGUCCUCACUCCAGAAUGAGUGCUGGCUCUGCCUCUGGCUGCAGAGUUGAGGUUGGACUCUGGAGUGGAUGGUGGAGAUGAGGCACAGUGGAGAGAAAG`: “RBNS enrichment (R)” 1.61.
`GGCUGGGGUAGAAACUGGUGUCUGCUCUGGUGUGAUCUGAAAAGGCGUCUUCACUGCUUUAUCUCAUGAUGCUUGCUUGUAAAACUUGAUUUUAGUUUUUCAUUUCUCAA`: “RBNS enrichment (R)” 0.534.
`AUGCAAGCCAUUCAGUUAUCAGGACUGUGAAUUAACACUGUAUGAAUACAUUUCUGUACACCUUAUUGUUUGGCCAGAGGGCCACCAAGUGUACUUAUAUGUAAUCCUUA` — result for “RBNS enrichment (R)”: 0.679.
`GGAAAUAGCAUACUUUUUCAAAAAUAAAUAAAUAAAAAUGGCAUCUCUGAAAAUCCCAUUCUUUGAUUUUCCUGGUAUUGUAAUUGGUUAUUGACAAUUGUCAUCAUGAA`: “RBNS enrichment (R)” 1.15.

Series 4 — target: CCNB2, cyclin fold, Cln2 fusion (human); method: yeast growth competition, sequencing; matrix: yeast; setting: weak parent motif; reference: not given; direction: higher = stronger binding
Parent: RBL2 docking peptide (human); STTRRRLFVENDS
For `T2V`, “normalised enrichment score” read 0.372.
Under “normalised enrichment score”, `T3G` is recorded as 0.769.
`E10N` — result for “normalised enrichment score”: 0.531.
Under “normalised enrichment score”, `S1Q` is recorded as 0.123.
`V9F` — result for “normalised enrichment score”: 0.771.
`T3A` — result for “normalised enrichment score”: 0.252.
`R6Y`: “normalised enrichment score” -0.289.
`T3W` — result for “normalised enrichment score”: 0.616.
For `S1F`, “normalised enrichment score” read -0.0326.
Under “normalised enrichment score”, `D12P` is recorded as 0.322.
`S13T` — result for “normalised enrichment score”: 0.0182.
`F8C` — result for “normalised enrichment score”: 0.332.
For `T3M`, “normalised enrichment score” read 0.155.
`S1P` — result for “normalised enrichment score”: 0.561.
`R5V`: “normalised enrichment score” 0.0855.
`R4G` — result for “normalised enrichment score”: -0.577.
Under “normalised enrichment score”, `R5K F8L` is recorded as 0.112.
Under “normalised enrichment score”, `R6M` is recorded as 0.163.
`S13A`: “normalised enrichment score” 0.211.
Under “normalised enrichment score”, `V9M` is recorded as 0.812.
`D12M`: “normalised enrichment score” 0.297.
For `N11L`, “normalised enrichment score” read 0.616.

Some of these lines once more (series 4):
Under “normalised enrichment score”, `T3G` is recorded as 0.769.
`E10N` — result for “normalised enrichment score”: 0.531.
Under “normalised enrichment score”, `S1Q` is recorded as 0.123.
`V9F` — result for “normalised enrichment score”: 0.771.
